Assay results gathered from unrelated publications.
Each numbered part is a random draw from the data of one study; scales do not carry over between parts. Substitutions count along the parent as printed.

Sample 1
Target: CCNB2, cyclin fold, Cln2 fusion (human)
Technique: yeast growth competition, sequencing
Matrix: yeast
Notes: weak parent motif
Relative to: not given
Reading: higher = stronger binding
Parent: WEE1 docking peptide (human); HKTFRKLRLFDTP
Substitution	normalised enrichment score
HSTFRKLRLFDTP [K2S]	0.576
HKTFRKLRLFDSP [T12S]	0.846
HHTFRKLRLFDTP [K2H]	0.455
HKTFRALRLFDTP [K6A]	0.101
HKTFRELRLFDTP [K6E]	0.376
HKHFRKLRLFDTP [T3H]	0.693
HKNFRKLRLFDTP [T3N]	0.118
HKTFRKLELFDTP [R8E]	0.449

Sample 2
Target: Sal-like protein 4, full length isoform A (SALL4, Homo sapiens, UniProt Q9UJQ4, residues 1-1053)
Sequence of UniProt Q9UJQ4 (whole entry, looked up): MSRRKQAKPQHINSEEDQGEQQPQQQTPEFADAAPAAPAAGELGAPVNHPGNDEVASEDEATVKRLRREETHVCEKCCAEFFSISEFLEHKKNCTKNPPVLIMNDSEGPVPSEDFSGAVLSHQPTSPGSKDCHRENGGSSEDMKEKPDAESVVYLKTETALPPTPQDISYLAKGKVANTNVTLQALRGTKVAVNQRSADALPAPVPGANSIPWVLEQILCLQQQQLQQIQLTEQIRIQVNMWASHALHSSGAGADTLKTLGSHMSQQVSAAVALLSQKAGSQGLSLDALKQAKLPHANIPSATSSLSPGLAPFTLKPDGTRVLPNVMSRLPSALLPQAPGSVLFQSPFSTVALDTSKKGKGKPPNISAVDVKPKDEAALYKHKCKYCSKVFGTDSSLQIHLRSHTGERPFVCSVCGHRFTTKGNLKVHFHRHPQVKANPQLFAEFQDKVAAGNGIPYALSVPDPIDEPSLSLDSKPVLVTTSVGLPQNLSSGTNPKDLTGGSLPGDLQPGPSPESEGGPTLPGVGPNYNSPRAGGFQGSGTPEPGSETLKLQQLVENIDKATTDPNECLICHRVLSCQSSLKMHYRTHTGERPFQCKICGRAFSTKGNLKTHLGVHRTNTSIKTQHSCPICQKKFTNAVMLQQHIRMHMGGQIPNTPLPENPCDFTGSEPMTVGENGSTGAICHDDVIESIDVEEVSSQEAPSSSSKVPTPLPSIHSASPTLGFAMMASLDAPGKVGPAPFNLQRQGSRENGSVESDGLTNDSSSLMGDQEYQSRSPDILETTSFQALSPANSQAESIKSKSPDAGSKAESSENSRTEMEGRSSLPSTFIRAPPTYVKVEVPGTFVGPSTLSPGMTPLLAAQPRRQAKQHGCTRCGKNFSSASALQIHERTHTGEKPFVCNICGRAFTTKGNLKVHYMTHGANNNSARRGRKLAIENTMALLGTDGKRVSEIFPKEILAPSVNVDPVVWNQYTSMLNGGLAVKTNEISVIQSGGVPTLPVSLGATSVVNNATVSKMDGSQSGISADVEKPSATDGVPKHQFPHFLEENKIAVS
Technique: universal PBM
Molecule type: double-stranded DNA, one strand shown
Matrix: in vitro
Tested at: 600 nM
Notes: 8-mer, flanks averaged, mean of replicates
Reading: higher = stronger binding
Sequence	E-score
CTGGCTCC	-0.296
GGAGCGGA	-0.315
ACGCGAGT	-0.138
TATCTTGA	0.202
AGTAATAC	0.21
CTGGCACC	-0.224
CATGCACA	0.0599
GCCTCCAC	-0.257

Mixed results
Nfkb1 Rel homology region: Nuclear factor NF-kappa-B p105 subunit, Rel homology region (Nfkb1, Mus musculus, UniProt P25799, residues 1-429)
Sequence of UniProt P25799 (1-429, looked up): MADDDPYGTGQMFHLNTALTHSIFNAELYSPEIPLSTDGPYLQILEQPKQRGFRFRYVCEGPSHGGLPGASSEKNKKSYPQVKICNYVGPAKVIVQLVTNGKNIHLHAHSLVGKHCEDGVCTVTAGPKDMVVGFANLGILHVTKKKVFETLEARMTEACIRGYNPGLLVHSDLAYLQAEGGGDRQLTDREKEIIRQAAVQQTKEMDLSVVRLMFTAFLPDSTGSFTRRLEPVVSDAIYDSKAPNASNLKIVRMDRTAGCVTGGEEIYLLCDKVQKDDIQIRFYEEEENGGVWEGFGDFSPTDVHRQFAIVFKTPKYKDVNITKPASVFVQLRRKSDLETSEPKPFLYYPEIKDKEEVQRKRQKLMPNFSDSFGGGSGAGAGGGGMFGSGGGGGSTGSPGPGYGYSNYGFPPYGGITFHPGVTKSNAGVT
Molecule	target or system	assay	test system	setting	how to read	measurement	value
AGGAATTCCA	Nfkb1 Rel homology region	surface plasmon resonance	double-stranded DNA, one strand shown, in vitro	1 nM to 1 µM, 10-bp κB site, 1:1 kinetic fit, 10 °C	higher = slower dissociation	dissociation half-life	0.15 min
NNC(=O)c1ccncc1	Sarcocystis neurona	parasite growth		10 µM, secondary screen		inhibition	-26.7%
GGGGGTTTTT	Nfkb1 Rel homology region	surface plasmon resonance	double-stranded DNA, one strand shown, in vitro	1 nM to 1 µM, 10-bp κB site, 1:1 kinetic fit, 10 °C	higher = slower dissociation	dissociation half-life	7.28 min
